Results of several laboratories.
Lines come from different studies, so protocols differ. ± gives the spread as reported.

SMILES | target or system | test | test system | setting | scale | endpoint | value
O=C(N/N=C/c1ccc2c(ccc[n+]2Cc2ccccc2)c1)C(=O)N/N=C/c1ccc2c(ccc[n+]2Cc2ccccc2)c1 | MYC parallel G4 DNA | FRET melting | – | 1 µM, DNA 0.2 µM | – | ΔTm | 4.3 ± 0.7 °C
O=c1c2cc([N+](=O)[O-])ccc2n(CCO)n1Cc1ccccc1 | Leishmania amazonensis | parasite growth, resazurin | – | promastigote | – | IC50 | 1260 nM
Cc1ncsc1-c1ccc(C(C)NC(=O)C2CC(O)CN2C(=O)C(NC(=O)CCCCCCCCCCN2CCCC(Nc3ncc(Cl)c(Nc4ccccc4S(=O)(=O)C(C)C)n3)C2)C(C)(C)C)cc1 (stereo not drawn) | 22Rv1 | RNA-seq, measured: RECQL5 mRNA | – | concentration not given | relative to: DMSO | log2 fold change | -1.26
O=C(Oc1cc(OC(=O)c2cc(O)c(O)c(O)c2)c2ccccc2c1)c1cc(O)c(O)c(O)c1 | Human alphaherpesvirus 2 | viral replication, inhibitor, qPCR | BEAS-2B | – | – | IC50 | 1970 nM
C[n+]1ccc(/C=N/NC(=O)c2cc(C(=O)N/N=C/c3cc[n+](C)cc3)ncn2)cc1 | MYC parallel G4 DNA | FRET melting | – | 1 µM, DNA 0.2 µM | – | ΔTm | 2.5 ± 1.7 °C
COc1ccccc1NC(=O)OC1C(C)C(OC)C=COC2(C)Oc3c(C)c(O)c4c(c3C2=O)C2=NC3(CCN(CC(C)C)CC3)NC2=C(NC(=O)C(C)=CC=CC(C)C(O)C(C)C(O)C1C)C4=O (stereo not drawn) | Mycobacteroides abscessus | intracellular growth, Hill fit | THP-1 derived macrophages, ATCC 19977 | – | – | IC50 | 12 nM
CCCCCCCCCCCCCCC[C@@H](O)[C@H](CO)NC(=O)N[C@@H](CCC(N)=O)C(=O)N[C@@H](CCCCN)C(=O)N[C@H](C(=O)N[C@@H](C)C(=O)N[C@@H](CCCNC(=N)N)C(=O)N[C@@H](CC(C)C)C(=O)N[C@@H](CCC(N)=O)C(=O)N[C@H](C(=O)N[C@@H](CC(C)C)C(=O)N[C@@H](Cc1c[nH]c2ccccc12)C(=O)N[C@@H](CC(C)C)C(=O)N[C@@H](CCC(N)=O)C(=O)N[C@H](C(=O)NCC(=O)N[C@H](C(=O)N[C@@H](CC(C)C)C(=O)N[C@@H](CC(C)C)C(N)=O)C(C)C)[C@@H](C)CC)[C@@H](C)O)[C@@H](C)CC | HIV-1 HXB2 | viral infection, luciferase reporter | TZM-bl | – | – | IC50 | > 4000 nM
NC(=O)CCCn1c2ccc([N+](=O)[O-])cc2c(=O)n1Cc1ccccc1 | Leishmania amazonensis | parasite growth, resazurin | – | promastigote | – | IC50 | 770 nM
Nc1ncc(-c2cc(-c3cnn(CC(F)(F)F)c3)ncc2F)nc1C(=O)NC1CNCC(F)C1 (stereo not drawn) | DDR1 | KINOMEscan | – | 1 µM | relative to: DMSO control | remaining binding | 96%
O=C(O)CN1C(=O)C(Cc2ccccc2)NC2(C1=O)C1CC3CC(C1)CC2C3 (stereo not drawn) | Trypanosoma brucei | parasite growth | – | pH 7.4, blood stage | – | IC50 | 103000 nM
COC1C=COC2(C)Oc3c(C)c(O)c4c(c3C2=O)C2=NC3(CCN(CC(C)C)CC3)NC2=C(NC(=O)C(C)=CC=CC(C)C(O)C(C)C(O)C(C)C(OC(=O)Nc2cccnn2)C1C)C4=O (stereo not drawn) | Mycobacteroides abscessus | bacterial growth | subsp. massiliense 097 clinical isolate | rough, slow grower | – | IC50 | 34 nM
CN1CC(=O)N(CC(=O)O)C(=O)C12CCCCCC2 | Trypanosoma brucei | parasite growth | – | pH 7.4, blood stage | – | IC50 | > 300000 nM
CCCOC(=O)N1c2cc(CNC)ccc2[C@H](NC(=O)C(=O)Nc2ccc(Cl)c(F)c2)[C@H]1CNC(=N)N | Human immunodeficiency virus 1 | viral infection, Env pseudovirus | TZM-bl, C2101.c01 CRF01_AE | – | – | IC50 | > 100000 nM
COC1CN([C@H]2CC[C@H]([C@@]3(C)Oc4c(Cl)cc(C(=O)NCc5c(SC)cc(C)[nH]c5=O)c(C)c4O3)CC2)C1 | – | RNA-seq, measured: HDAC11 mouse homolog | mouse, HT-1376 xenograft, whole blood | dose not given | relative to: vehicle | log2 fold change | 0.786
Cn1c2ccc([N+](=O)[O-])cc2c(=O)n1Cc1ccccc1 | Leishmania amazonensis | parasite growth, resazurin | – | promastigote | – | IC50 | 2010 nM
CNS(=O)(=O)Nc1nccc(Cc2c(C)c3ccc(Oc4ncccc4F)cc3oc2=O)c1F | HuO9 | cell viability, CellTiter-Glo | – | 7 days | – | IC50 | > 1000 nM
O=c1c2cc([N+](=O)[O-])ccc2n(CCBr)n1Cc1ccccc1 | Leishmania amazonensis | parasite growth, resazurin | – | promastigote | – | IC50 | 1190 nM
CNCc1ccc2c(c1)C[C@H](CNC(=N)N)[C@H]2NC(=O)C(=O)Nc1ccc(Cl)c(F)c1 | HIV-1 | pseudovirus infection, Env pseudovirus neutralisation | TZM-bl, clade C T/F isolate 2A2 | – | – | IC50 | > 100000 nM
